Measurements from different studies.
Numbered parts are unrelated; each lists some results of a single study. Positions count from the first letter of the parent shown.
UniProt Q9Y243, sequence (whole entry, looked up): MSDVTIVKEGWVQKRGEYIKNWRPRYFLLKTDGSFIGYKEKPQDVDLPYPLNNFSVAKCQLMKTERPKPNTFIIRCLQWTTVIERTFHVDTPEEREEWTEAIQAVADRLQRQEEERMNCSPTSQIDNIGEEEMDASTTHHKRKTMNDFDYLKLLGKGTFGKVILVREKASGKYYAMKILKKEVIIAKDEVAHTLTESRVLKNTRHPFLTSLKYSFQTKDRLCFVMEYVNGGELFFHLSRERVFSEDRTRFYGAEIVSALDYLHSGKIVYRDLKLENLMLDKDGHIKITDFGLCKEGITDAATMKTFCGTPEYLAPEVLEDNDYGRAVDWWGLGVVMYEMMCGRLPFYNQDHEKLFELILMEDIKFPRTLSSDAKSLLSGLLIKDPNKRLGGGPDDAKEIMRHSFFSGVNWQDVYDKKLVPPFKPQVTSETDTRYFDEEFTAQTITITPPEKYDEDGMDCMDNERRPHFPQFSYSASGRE

Series 1 — target: JUN, bZIP domain (human); technique: DHFR protein complementation; medium: yeast; baseline: wild-type JUN-FOS pair; reading: higher = stronger binding
Notes: single substitutions, most at no-binding floor
Parent: JUN, bZIP domain (human); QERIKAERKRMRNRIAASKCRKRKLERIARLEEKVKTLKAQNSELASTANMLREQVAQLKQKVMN; partner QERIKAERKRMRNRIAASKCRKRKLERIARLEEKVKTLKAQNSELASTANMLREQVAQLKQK
Substitution | binding fitness [natural log]
T48V | -0.226
E54K | -0.501
A29E | -0.446
R30E | -0.0833
I28T | -0.842
A40R | -0.181
Q55K | -0.44
V56R | -1.17

Series 2 — technique: RNA Bind-n-Seq; form: RNA; medium: in vitro; tested at: 365 nM; baseline: no-protein control; reading: higher = stronger binding
Target: RNA binding protein fox-1 homolog 2, RRM domain, GST-SBP tag (RBFOX2, Homo sapiens, UniProt O43251-10, residues 100-194)
Notes: natural RNA segment, single round, ends assumed
Constant ends, left off below: GGGAGUUCUACAGUCCGACGAUC … UGGAAUUCUCGGGUGCCAA
Residues (chain): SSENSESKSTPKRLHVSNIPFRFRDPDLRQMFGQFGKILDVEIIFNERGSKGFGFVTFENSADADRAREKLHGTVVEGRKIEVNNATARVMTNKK
Oligonucleotide | RBNS enrichment (R)
UUUCACAACAAGGAGAAGCCACAGUUUGUGGCAUCCUAUAGUUUUACAUUGUGUAUUUCUUCCUUUUAGGAAAAACCUACCUAGUACAAGCUACCACGUGCACAGACAGC | 0.271
UUCCCACGGGAAGCUCUAGGACAGGAGGAAGGCGGGAAGCCCUGGGCAGGAACCACUCUGGCUGUCCAGGGGCUCCUGAAAUCUUCUGGUCAUCUACAAAGGGUAACAGG | 0.238
AGUGACUGCGGUCACCCCUUUAGUUCUCUGGGUGUAGACCACACCACCUCCCACUGGGCACCCCCCAACACGGUGUCCUGCCACCCAGCGCCUGGCUCCAGGAAAACACG | 0.451
CUUGUCCACAUAGGUUUAGAGAUAAGAGUUGGCUGGUCAACUUGAGCAUGUUACUGACAGAGGGGGUAUUGGGGUUAUUUUCUGGUAGGAAUAGCAUGUCACUAAAGCAG | 22.5
GAUCUGUGCCAUAAUAGAUAUGCAUUGCAAUUGUAUGCCAUGUCUCCAUUUUAAAUUUGAGUUUCCCUUUCGUUUUUACUCACCACCAAAGAAUCUCAAAUGUAAAAUUU | 0.668
ACAGUUGGCUUAGCAGGGAGGAUCUGUAGAGCUCUCGAUGAUCCUUCCUCCAUGUGUGUCCUGUGAGGAUUUUGCUCAUGAGUCAUGCAGGCAGUGACAGUGAACUGUAA | 0.381
CAGGCCUUCAGUGACAUCAGGUCGUUGUCAUCCUUUCCCUCCCUGACCUGUCACGAGCCUCUGCAGGUGCCUGCUCACCAUGGCCCAGCGCCACUCUGUCCUCCGACUCA | 0.448
GAGAGAGUGGCAGAUGCUCCAGUUUCACUUAAGCAGUGGUAAACGUUUGAAGGUUCGUUUUUUGUUGGAACUCCGGAUGUAGACUAGCCUAGCCUCAGAUCCUCCGUGAG | 0.794

Series 3 — technique: RNA Bind-n-Seq; form: RNA; medium: in vitro; tested at: 1 µM; notes: whole 134-nt RNA, ends assumed; together with: 150 mM KCl; baseline: input library; reading: higher = stronger binding
Target: Ras GTPase-activating protein-binding protein 1, RRM domain (G3BP1, Homo sapiens, UniProt Q13283)
UniProt Q13283, sequence (whole entry, looked up): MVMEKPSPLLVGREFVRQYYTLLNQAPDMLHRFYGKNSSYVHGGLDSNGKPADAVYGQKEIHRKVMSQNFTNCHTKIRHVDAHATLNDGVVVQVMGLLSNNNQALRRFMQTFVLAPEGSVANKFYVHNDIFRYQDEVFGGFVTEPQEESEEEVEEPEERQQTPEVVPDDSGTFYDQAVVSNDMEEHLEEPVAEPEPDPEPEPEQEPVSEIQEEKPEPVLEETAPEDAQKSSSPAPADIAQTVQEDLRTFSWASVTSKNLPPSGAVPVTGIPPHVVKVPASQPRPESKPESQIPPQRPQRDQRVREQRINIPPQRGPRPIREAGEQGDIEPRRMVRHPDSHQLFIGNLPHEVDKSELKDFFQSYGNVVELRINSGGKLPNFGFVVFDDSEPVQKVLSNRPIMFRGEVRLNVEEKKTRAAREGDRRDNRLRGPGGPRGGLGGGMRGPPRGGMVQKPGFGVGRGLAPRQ
Constant ends, left off below: GGGAGUUCUACAGUCCGACGAUC … UGGAAUUCUCGGGUGUCAAGG
Oligonucleotide | log2 enrichment
GCAGGAAGUAAAAACAAAUUGAAAUGCUUCGGAUAGUGGCAGGGGUGGGGGUUGCUAAGGAAAGGGUGGGAUGGGAGUGGGUAAAGAGUU | 1.56
CCUCAAGUCCUGUGCUACACAUCGUAUGUACCGAAUCGGGAGGGGAGGGAGGGAAAGUAUUAUGUUACGCCGUUCGGAUCUGCACUUCCA | 0.887
CAAGUCCUGUGCUACACAUCGUAUGUACCGAAUCGGUUUGGGGUUUGGGUUUGGGAAAGUAUUAUGUUACGCCGUUCGGAUCUGCACUUC | -0.204
GUCCUGUGCUACACAUCGUAUGUACCGAAUCGGUUUUUUGGGUUUUUUGGUUUUUUGGAAAGUAUUAUGUUACGCCGUUCGGAUCUGCAC | -0.174
GUCCUGUGCUACACAUCGUAUGUACCGAAUCGGUUUUUUGGUUUUUUGGGUUUUUUGGAAAGUAUUAUGUUACGCCGUUCGGAUCUGCAC | -0.233
UGCCGUGCCGGGUGGACGGUCUGCUCGCCUGUCUGCGUGACGAAACUGAGGCACAAAGACGCGCUAUGCCAGCGGCGGGUAUAGCAAGGG | -0.468
UCCUGUGCUACACAUCGUAUGUACCGAAUCGGGUUUGGGAAAAAAAGGGAAAAAAAGGGAAAGUAUUAUGUUACGCCGUUCGGAUCUGCA | 0.279
AGUCCUGUGCUACACAUCGUAUGUACCGAAUCGGGGAGGGGAGGGGAAAAAAAGGGGAAAGUAUUAUGUUACGCCGUUCGGAUCUGCACU | 0.763

Further values, each from its own experiment
Structure (SMILES) | target | effect on | action | tested at | baseline | endpoint | result
Cc1cc2ncc(-c3ccccc3)nc2cc1C | RAC-gamma serine/threonine-protein kinase (AKT3, Homo sapiens, UniProt Q9Y243) | enzyme activity | inhibitor | 0.5 µM | control | remaining activity | 91.8%

For quick reference, copied from above (series 2):
Oligonucleotide | RBNS enrichment (R)
CUUGUCCACAUAGGUUUAGAGAUAAGAGUUGGCUGGUCAACUUGAGCAUGUUACUGACAGAGGGGGUAUUGGGGUUAUUUUCUGGUAGGAAUAGCAUGUCACUAAAGCAG | 22.5
